Experimental data of several laboratories.
Compare with care: the assays were run in different laboratories. ± marks the error that the study gave.

The unbound clearance of `CCCC[C@@H]1NC(=O)[C@H](Cc2ccc(O)cc2)NC(=O)[C@@H]2CCCN2C(=O)[C@H](CC(=O)O)NC(=O)[C@H](C)NC(=O)[C@H](Cc2ccccc2)NC(=O)[C@@H]2CSCCC(=O)N3CN(CN(C3)C(=O)CCSC[C@@H](C(=O)N[C@@H](C)C(N)=O)NC1=O)C(=O)CCSC[C@H](NC(C)=O)C(=O)N[C@@H](CC(C)(C)C)C(=O)N1CCC[C@H]1C(=O)N[C@@H](CCC(=O)O)C(=O)N[C@H](CCCCNC(=O)CCc1cn(CCOCCOCCOCCOCCOCCC(=O)N[C@H]3CSCCC(=O)N4CN5CN(C4)C(=O)CCSC[C@H](NC(=O)[C@@H](CC(=O)O)NC(=O)[C@H](Cc4cccc6ccccc46)NC(=O)[C@@H]4CCCN4C3=O)C(=O)N[C@@H](CCSC)C(=O)N[C@@H](CCCCNC(=N)N)C(=O)N[C@@H](CC(=O)O)C(=O)N[C@@H](Cc3c[nH]c4ccccc34)C(=O)N[C@@H](CO)C(=O)N[C@@H]([C@@H](C)O)C(=O)N3CCC[C@H]3C(=O)N3C[C@H](O)C[C@H]3C(=O)N[C@@H](Cc3c[nH]c4ccccc34)C(=O)N[C@H](C(N)=O)CSCCC5=O)nn1)C(=O)N1CCC[C@H]1C(=O)N[C@@H](Cc1ccc(O)cc1)C(=O)N2` is reported as 50 mL/min/kg (Sprague-Dawley rat).
`O=C(O)Cc1ccccc1Nc1c(Cl)cccc1Cl` — result for “unbound intrinsic clearance”: 5230 mL/min/kg (Sprague-Dawley rat, male).
`Cc1c(Br)cc(NC(=O)C(c2ccccc2)S(=O)(=O)O)cc1Br` (centres unmarked) gave an unbound Cmax of less than 43 nM (Sprague-Dawley rats, plasma; oral, 30 mg/kg).
For `CCCC[C@@H]1NC(=O)[C@H](Cc2ccc(O)cc2)NC(=O)[C@@H]2CCCN2C(=O)[C@H](CC(=O)O)NC(=O)[C@H](C)NC(=O)[C@H](Cc2ccccc2)NC(=O)[C@@H]2CSCCC(=O)N3CN(CN(C3)C(=O)CCSC[C@@H](C(=O)N[C@@H](C)C(N)=O)NC1=O)C(=O)CCSC[C@H](NC(C)=O)C(=O)N[C@@H](CC(C)(C)C)C(=O)N1CCC[C@H]1C(=O)N[C@@H](CCC(=O)O)C(=O)N[C@H](CCCCNC(=O)CCc1cn(CCOCCOCCOCCOCCOCCOCCOCCOCCOCCOCCNC(=O)CCOCCN(CCOCCC(=O)NCCOCCOCCOCCOCCOCCOCCOCCOCCOCCOCCn3cc(CCC(=O)NCCCC[C@H]4NC(=O)[C@H](CCC(=O)O)NC(=O)[C@@H]5CCCN5C(=O)[C@H](CC(C)(C)C)NC(=O)[C@@H](NC(C)=O)CSCCC(=O)N5CN6CN(C5)C(=O)CCSC[C@H](NC(=O)[C@H](Cc5ccc(O)cc5)NC(=O)[C@@H]5CCCN5C4=O)C(=O)N[C@@H](Cc4ccccc4)C(=O)N[C@@H](C)C(=O)N[C@@H](CC(=O)O)C(=O)N4CCC[C@H]4C(=O)N[C@@H](Cc4ccc(O)cc4)C(=O)N[C@@H](CCCC)C(=O)N[C@H](C(=O)N[C@@H](C)C(N)=O)CSCCC6=O)nn3)CCOCCC(=O)NCCOCCOCCOCCOCCOCCOCCOCCOCCOCCOCCn3cc(CCC(=O)N[C@H]4CSCCC(=O)N5CN6CN(C5)C(=O)CCSC[C@H](NC(=O)[C@@H](CC(=O)O)NC(=O)[C@H](Cc5cccc7ccccc57)NC(=O)[C@@H]5CCCN5C4=O)C(=O)N[C@@H](CCSC)C(=O)N[C@@H](CCCCNC(=N)N)C(=O)N[C@@H](CC(=O)O)C(=O)N[C@@H](Cc4c[nH]c5ccccc45)C(=O)N[C@@H](CO)C(=O)N[C@@H]([C@@H](C)O)C(=O)N4CCC[C@H]4C(=O)N4C[C@H](O)C[C@H]4C(=O)N[C@@H](Cc4c[nH]c5ccccc45)C(=O)N[C@H](C(N)=O)CSCCC6=O)nn3)nn1)C(=O)N1CCC[C@H]1C(=O)N[C@@H](Cc1ccc(O)cc1)C(=O)N2`, the unbound Vdss was 1.8 L/kg (Sprague-Dawley rat).
Under “unbound intrinsic clearance”, `CCCCNC(=O)NS(=O)(=O)c1ccc(C)cc1` is recorded as 46.1 mL/min/kg (Sprague-Dawley rat, male).
For `CN(C)C(=O)c1cc2cnc(Nc3ccc(N4CCNCC4)cn3)nc2n1C1CCCC1`, the unbound Cmax was 2820 ng/mL (Sprague-Dawley rat male, plasma; intraperitoneal, 100 mg/kg).
For `COCCc1ccc(OCC(O)CNC(C)C)cc1` (centres unmarked), “unbound intrinsic clearance” read 2640 mL/min/kg (Sprague-Dawley rat, male).
`CCONC(=O)N1CCC[C@H](C(=O)NCc2nc(-c3ccc(C#N)cc3)cs2)C1` gave an unbound AUC of 0.2 µM·h (Sprague-Dawley rat, male, plasma; oral, 3 mg/kg).
`C[C@@H](NC(=O)c1ccc(C#Cc2cccc(F)c2)cn1)C(C)(C)O`: “unbound brain concentration” 22 ± 1.5 nM (rats; i.p., 10 mg/kg, 2 h).
For `CCOCC(=O)N1CCC[C@H](C(=O)NCc2nc(-c3ccc(C#N)nc3)cs2)C1`, the unbound AUC was 1.1 µM·h (Sprague-Dawley rat, male, plasma; oral, 3 mg/kg).
`CCCC[C@@H]1NC(=O)[C@H](Cc2ccc(O)cc2)NC(=O)[C@@H]2CCCN2C(=O)[C@H](CC(=O)O)NC(=O)[C@H](C)NC(=O)[C@H](Cc2ccccc2)NC(=O)[C@@H]2CSCCC(=O)N3CN(CN(C3)C(=O)CCSC[C@@H](C(=O)N[C@@H](CNC(=O)CCOCCOCCOCCOCCOCCOCCOCCOCCOCCOCCOCCOCCn3cc(CCC(=O)NCCC(=O)N(C)CC(=O)N(C)CC(=O)N(C)CC(=O)N(C)CC(=O)N(C)CC(=O)N(C)CC(=O)N(C)CC(=O)N(C)CC(=O)N(C)CC(=O)N(C)CC(=O)N[C@H]4CSCCC(=O)N5CN6CN(C5)C(=O)CCSC[C@H](NC(=O)[C@@H](CC(=O)O)NC(=O)[C@H](Cc5cccc7ccccc57)NC(=O)[C@@H]5CCCN5C4=O)C(=O)N[C@@H](CCSC)C(=O)N[C@@H](CCCCNC(=N)N)C(=O)N[C@@H](CC(=O)O)C(=O)N[C@@H](Cc4c[nH]c5ccccc45)C(=O)N[C@@H](CO)C(=O)N[C@@H]([C@@H](C)O)C(=O)N4CCC[C@H]4C(=O)N4C[C@H](O)C[C@H]4C(=O)N[C@@H](Cc4c[nH]c5ccccc45)C(=O)N[C@H](C(N)=O)CSCCC6=O)nn3)C(N)=O)NC1=O)C(=O)CCSC[C@H](NC(C)=O)C(=O)N[C@@H](CC(C)(C)C)C(=O)N1CCC[C@H]1C(=O)N[C@@H](CCC(=O)O)C(=O)N[C@H](C)C(=O)N1CCC[C@H]1C(=O)N[C@@H](Cc1ccc(O)cc1)C(=O)N2` gave an unbound clearance of 55 mL/min/kg (Sprague-Dawley rat).
`CCOCC(=O)N1CCC[C@H](C(=O)NCc2nc(-c3ccc(C)nc3)cs2)C1`: “unbound hepatic CLint” 38 mL/min/kg (Sprague-Dawley rat, male, plasma; intravenous, 1 mg/kg).
`Cc1c(C(=O)O)ccc2c3n(nc12)[C@@H]1[C@H](C3)N(CC2CC2)[C@@]2(C(=O)Nc3cc(Cl)ccc32)[C@H]1c1cccc(Cl)c1F` gave an unbound fraction of 0.001 (equilibrium dialysis; RjHan:WI rat, both sexes, plasma; pH 7.4).
`COCC(=O)N1CCC[C@H](C(=O)NCc2nc(-c3ccc(C#N)cc3)cs2)C1` — result for “unbound hepatic CLint”: 57 mL/min/kg (Sprague-Dawley rat, male, plasma; intravenous, 1 mg/kg).
`COc1cc(F)cc2c(N3CCN4c5c(F)cccc5OC[C@@H]4C3)c(C#N)nnc12` (single isomer, unassigned) gave an unbound fraction of 0.03 (rat, plasma).
The unbound Vdss of `CCCC[C@@H]1NC(=O)[C@H](Cc2ccc(O)cc2)NC(=O)[C@@H]2CCCN2C(=O)[C@H](CC(=O)O)NC(=O)[C@H](C)NC(=O)[C@H](Cc2ccccc2)NC(=O)[C@@H]2CSCCC(=O)N3CN(CN(C3)C(=O)CCSC[C@@H](C(=O)N[C@@H](C)C(N)=O)NC1=O)C(=O)CCSC[C@H](NC(C)=O)C(=O)N[C@@H](CC(C)(C)C)C(=O)N1CCC[C@H]1C(=O)N[C@@H](CCC(=O)O)C(=O)N[C@H](CCCCNC(=O)CCc1cn(CCOCCOCCOCCOCCOCCOCCOCCOCCOCCOCCNC(=O)c3cc(C(=O)NCCOCCOCCOCCOCCOCCOCCOCCOCCOCCOCCn4cc(CCC(=O)NCCCC[C@H]5NC(=O)[C@H](CCC(=O)O)NC(=O)[C@@H]6CCCN6C(=O)[C@H](CC(C)(C)C)NC(=O)[C@@H](NC(C)=O)CSCCC(=O)N6CN7CN(C6)C(=O)CCSC[C@H](NC(=O)[C@H](Cc6ccc(O)cc6)NC(=O)[C@@H]6CCCN6C5=O)C(=O)N[C@@H](Cc5ccccc5)C(=O)N[C@@H](C)C(=O)N[C@@H](CC(=O)O)C(=O)N5CCC[C@H]5C(=O)N[C@@H](Cc5ccc(O)cc5)C(=O)N[C@@H](CCCC)C(=O)N[C@H](C(=O)N[C@@H](C)C(N)=O)CSCCC7=O)nn4)cc(C(=O)NCCOCCOCCOCCOCCOCCOCCOCCOCCOCCOCCn4cc(CCC(=O)N[C@H]5CSCCC(=O)N6CN7CN(C6)C(=O)CCSC[C@H](NC(=O)[C@@H](CC(=O)O)NC(=O)[C@H](Cc6cccc8ccccc68)NC(=O)[C@@H]6CCCN6C5=O)C(=O)N[C@@H](CCSC)C(=O)N[C@@H](CCCCNC(=N)N)C(=O)N[C@@H](CC(=O)O)C(=O)N[C@@H](Cc5c[nH]c6ccccc56)C(=O)N[C@@H](CO)C(=O)N[C@@H]([C@@H](C)O)C(=O)N5CCC[C@H]5C(=O)N5C[C@H](O)C[C@H]5C(=O)N[C@@H](Cc5c[nH]c6ccccc56)C(=O)N[C@H](C(N)=O)CSCCC7=O)nn4)c3)nn1)C(=O)N1CCC[C@H]1C(=O)N[C@@H](Cc1ccc(O)cc1)C(=O)N2` is reported as 5.3 L/kg (Sprague-Dawley rat).
For `CC(C)(N)COCC(=O)N1CCC[C@H](C(=O)NCc2nc(-c3ccc(C(F)(F)F)cc3)cs2)C1`, “unbound hepatic CLint” read 270 mL/min/kg (Sprague-Dawley rat, male, plasma; intravenous, 1 mg/kg).

A few entries again:
`COc1cc(F)cc2c(N3CCN4c5c(F)cccc5OC[C@@H]4C3)c(C#N)nnc12` (single isomer, unassigned) gave an unbound fraction of 0.03 (rat, plasma).
